Results gathered from unrelated publications.
Each line is one published result; not all experiments were run side by side.
Cell line: A-375

CC(C)=CC1OC(C)(C)C2C=C3C(=O)C(Cl)=CC(O)C3C3C(O)C4OC4C(=O)C132 (stereo not drawn) — IC50 (cell growth or viability, MTS): 880 nM
CCN(C(=O)c1cc(F)ccc1Oc1nncnc1N1CCC2(C1)CN([C@H](CCCN(C)CCOC)C(C)C)C2)C(C)C — GI50 (cell growth or viability; 72 h): > 10000 nM
[Cl][Au-]1([Cl])[c]2ccccc2Cc2cccc[n+]21 — IC50 (cell growth or viability, resazurin; 72 h): 7000 nM
CC(C)(C)c1cc(-c2ccc3cccnc3n2)nc(-c2ccc3cccnc3n2)c1.[Cl-].[Cl-].[Ru+2].c1ccc2cc3nc4c5cccnc5c5ncccc5c4nc3cc2c1 — phototoxicity index (resazurin; added: light 733 nm, 100 J/cm2; reference: dark EC50 over light EC50): 3
CC(C)(C)c1cnc(CSc2cnc(NC(=O)C3CCN(C(=O)CCCCCCN4Cc5cc6c(cc5C4)C(=O)N(C4CCC(=O)NC4=O)C6=O)CC3)s2)o1 (stereo not drawn) — IC50 (cell growth or viability, MTT): 237 nM
CCOc1cncc(-c2ccc(NC(=O)C3(c4ccnc(NS(=O)(=O)C5CC5)n4)CCOCC3)nc2)n1 — IC50 (cell growth or viability, ATP luminescence; 72 h): 93 nM
[Cl-].[Cl-].[Ru+2].c1cc(-c2ccc3cccnc3n2)nc(-c2ccc3cccnc3n2)c1.c1ccc2cc3nc4c5cccnc5c5ncccc5c4nc3cc2c1 — phototoxicity index (resazurin; added: light 523 nm, 100 J/cm2; reference: dark EC50 over light EC50): 5
Cc1ccc2[c](c1)[Au-]([Cl])([Cl])[n+]1ccccc1-2 — IC50 (cell growth or viability, resazurin; 72 h): 5000 nM
CNS(=O)(=O)Nc1nccc(Cc2c(C)c3ccc(Oc4ncccc4F)cc3oc2=O)c1F — IC50 (cell viability; 7 days): 2.3 nM
CC(C)(C)c1cc(-c2ccc3cc4ccccc4nc3n2)nc(-c2ccc3cc4ccccc4nc3n2)c1.[Cl-].[Cl-].[Ru+2].c1ccc2cc3nc4c5cccnc5c5ncccc5c4nc3cc2c1 — phototoxicity index (resazurin; added: light 733 nm, 100 J/cm2; reference: dark EC50 over light EC50): 1
CC(C)c1ccc(N(C)c2ccc3c(c2)OCC[C@H]3CNc2cnccc2C(=O)O)cc1 — IC50 (cell growth or viability, ATP luminescence; 7 days): 10.6 nM
NC(=O)c1ccc(-c2ccccc2Cl)c2c3c([nH]c12)CC[C@H](N)C3 — IC50 (cell growth or viability): 24.8 nM

Excerpt of the above:
Cc1ccc2[c](c1)[Au-]([Cl])([Cl])[n+]1ccccc1-2 — IC50 (cell growth or viability, resazurin; 72 h): 5000 nM
